Published values pooled from the literature.
Parts stem from different laboratories: compare values within a part only. Positions count from the first letter of the parent shown.
Chain of UniProt Q13043 (whole entry, looked up): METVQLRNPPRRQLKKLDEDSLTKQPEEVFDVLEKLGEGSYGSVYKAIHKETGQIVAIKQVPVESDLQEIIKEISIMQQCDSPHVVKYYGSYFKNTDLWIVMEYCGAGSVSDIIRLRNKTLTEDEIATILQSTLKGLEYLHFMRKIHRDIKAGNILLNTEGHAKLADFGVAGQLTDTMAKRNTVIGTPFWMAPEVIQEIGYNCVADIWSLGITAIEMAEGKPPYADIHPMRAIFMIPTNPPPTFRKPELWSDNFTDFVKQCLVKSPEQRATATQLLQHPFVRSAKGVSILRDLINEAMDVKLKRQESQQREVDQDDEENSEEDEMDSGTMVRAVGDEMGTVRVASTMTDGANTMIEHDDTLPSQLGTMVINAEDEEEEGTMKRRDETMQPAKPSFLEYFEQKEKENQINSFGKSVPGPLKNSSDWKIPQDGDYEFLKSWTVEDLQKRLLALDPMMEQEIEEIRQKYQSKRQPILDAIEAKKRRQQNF
Chain of UniProt O00750 (whole entry, looked up): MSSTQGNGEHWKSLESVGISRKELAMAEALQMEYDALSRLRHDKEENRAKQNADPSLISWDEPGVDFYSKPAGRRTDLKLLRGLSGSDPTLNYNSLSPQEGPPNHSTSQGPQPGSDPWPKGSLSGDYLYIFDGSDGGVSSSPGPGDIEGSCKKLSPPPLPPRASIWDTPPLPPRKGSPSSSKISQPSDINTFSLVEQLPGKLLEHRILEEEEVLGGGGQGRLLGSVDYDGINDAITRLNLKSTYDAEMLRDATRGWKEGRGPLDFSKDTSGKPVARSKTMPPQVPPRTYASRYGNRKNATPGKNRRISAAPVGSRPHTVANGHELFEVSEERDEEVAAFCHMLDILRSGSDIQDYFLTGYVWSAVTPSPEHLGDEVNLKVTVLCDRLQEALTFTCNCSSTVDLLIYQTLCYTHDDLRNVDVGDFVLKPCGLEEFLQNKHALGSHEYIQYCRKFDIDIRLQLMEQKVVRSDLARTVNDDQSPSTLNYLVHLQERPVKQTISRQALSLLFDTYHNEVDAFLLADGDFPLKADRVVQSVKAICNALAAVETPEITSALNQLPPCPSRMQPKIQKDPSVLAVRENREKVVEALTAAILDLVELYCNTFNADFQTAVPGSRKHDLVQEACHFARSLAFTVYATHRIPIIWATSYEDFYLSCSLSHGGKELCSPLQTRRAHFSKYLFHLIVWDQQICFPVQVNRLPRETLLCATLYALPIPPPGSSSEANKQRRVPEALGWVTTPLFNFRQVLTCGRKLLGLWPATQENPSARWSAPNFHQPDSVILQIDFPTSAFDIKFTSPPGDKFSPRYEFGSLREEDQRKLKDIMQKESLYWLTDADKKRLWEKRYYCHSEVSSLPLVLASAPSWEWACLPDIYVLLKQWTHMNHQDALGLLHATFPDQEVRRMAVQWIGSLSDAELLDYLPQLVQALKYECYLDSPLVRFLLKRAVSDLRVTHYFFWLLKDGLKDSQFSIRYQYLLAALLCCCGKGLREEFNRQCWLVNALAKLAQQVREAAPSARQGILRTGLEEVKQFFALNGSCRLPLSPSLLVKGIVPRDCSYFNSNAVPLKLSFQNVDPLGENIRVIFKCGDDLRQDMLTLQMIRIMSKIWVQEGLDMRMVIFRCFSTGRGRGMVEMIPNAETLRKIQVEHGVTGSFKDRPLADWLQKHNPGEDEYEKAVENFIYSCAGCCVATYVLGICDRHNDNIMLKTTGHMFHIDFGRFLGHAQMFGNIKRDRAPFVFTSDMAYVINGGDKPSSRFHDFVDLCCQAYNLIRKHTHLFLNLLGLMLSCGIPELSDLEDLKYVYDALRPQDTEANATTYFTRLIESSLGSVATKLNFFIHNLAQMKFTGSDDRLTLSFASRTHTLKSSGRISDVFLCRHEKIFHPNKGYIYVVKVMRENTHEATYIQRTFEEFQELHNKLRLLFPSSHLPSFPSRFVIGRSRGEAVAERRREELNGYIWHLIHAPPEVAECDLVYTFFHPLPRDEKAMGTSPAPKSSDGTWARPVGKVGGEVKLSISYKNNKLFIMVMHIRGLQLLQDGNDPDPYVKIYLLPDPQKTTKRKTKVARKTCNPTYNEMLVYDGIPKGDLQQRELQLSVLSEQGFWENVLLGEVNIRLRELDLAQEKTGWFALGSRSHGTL
Chain of UniProt Q08345 (whole entry, looked up): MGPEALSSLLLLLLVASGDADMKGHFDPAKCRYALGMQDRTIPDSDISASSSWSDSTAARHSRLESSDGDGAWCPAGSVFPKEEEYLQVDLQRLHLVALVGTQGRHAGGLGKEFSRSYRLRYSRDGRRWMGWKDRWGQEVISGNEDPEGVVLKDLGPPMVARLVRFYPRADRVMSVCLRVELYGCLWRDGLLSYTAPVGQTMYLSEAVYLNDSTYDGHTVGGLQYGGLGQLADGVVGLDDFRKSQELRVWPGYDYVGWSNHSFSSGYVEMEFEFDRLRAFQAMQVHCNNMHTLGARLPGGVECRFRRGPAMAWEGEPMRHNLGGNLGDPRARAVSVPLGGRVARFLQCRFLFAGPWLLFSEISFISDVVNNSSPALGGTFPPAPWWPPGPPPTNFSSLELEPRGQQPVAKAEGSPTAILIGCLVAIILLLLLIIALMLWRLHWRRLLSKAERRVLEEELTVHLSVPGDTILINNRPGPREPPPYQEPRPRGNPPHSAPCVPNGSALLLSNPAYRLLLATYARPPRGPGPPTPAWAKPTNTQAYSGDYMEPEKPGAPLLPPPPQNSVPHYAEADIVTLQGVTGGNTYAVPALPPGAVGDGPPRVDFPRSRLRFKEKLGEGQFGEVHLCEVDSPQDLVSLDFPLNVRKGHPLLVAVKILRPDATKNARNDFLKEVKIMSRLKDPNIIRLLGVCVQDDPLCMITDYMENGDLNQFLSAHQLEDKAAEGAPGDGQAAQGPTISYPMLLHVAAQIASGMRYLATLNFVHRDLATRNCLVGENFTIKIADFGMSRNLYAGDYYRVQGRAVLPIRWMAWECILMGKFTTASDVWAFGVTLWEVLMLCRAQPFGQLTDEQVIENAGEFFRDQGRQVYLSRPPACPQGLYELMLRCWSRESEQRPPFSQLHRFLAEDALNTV

Block 1
Target: ALK tyrosine kinase receptor (ALK, Homo sapiens, UniProt Q9UM73)
Chain of UniProt Q9UM73 (whole entry, looked up): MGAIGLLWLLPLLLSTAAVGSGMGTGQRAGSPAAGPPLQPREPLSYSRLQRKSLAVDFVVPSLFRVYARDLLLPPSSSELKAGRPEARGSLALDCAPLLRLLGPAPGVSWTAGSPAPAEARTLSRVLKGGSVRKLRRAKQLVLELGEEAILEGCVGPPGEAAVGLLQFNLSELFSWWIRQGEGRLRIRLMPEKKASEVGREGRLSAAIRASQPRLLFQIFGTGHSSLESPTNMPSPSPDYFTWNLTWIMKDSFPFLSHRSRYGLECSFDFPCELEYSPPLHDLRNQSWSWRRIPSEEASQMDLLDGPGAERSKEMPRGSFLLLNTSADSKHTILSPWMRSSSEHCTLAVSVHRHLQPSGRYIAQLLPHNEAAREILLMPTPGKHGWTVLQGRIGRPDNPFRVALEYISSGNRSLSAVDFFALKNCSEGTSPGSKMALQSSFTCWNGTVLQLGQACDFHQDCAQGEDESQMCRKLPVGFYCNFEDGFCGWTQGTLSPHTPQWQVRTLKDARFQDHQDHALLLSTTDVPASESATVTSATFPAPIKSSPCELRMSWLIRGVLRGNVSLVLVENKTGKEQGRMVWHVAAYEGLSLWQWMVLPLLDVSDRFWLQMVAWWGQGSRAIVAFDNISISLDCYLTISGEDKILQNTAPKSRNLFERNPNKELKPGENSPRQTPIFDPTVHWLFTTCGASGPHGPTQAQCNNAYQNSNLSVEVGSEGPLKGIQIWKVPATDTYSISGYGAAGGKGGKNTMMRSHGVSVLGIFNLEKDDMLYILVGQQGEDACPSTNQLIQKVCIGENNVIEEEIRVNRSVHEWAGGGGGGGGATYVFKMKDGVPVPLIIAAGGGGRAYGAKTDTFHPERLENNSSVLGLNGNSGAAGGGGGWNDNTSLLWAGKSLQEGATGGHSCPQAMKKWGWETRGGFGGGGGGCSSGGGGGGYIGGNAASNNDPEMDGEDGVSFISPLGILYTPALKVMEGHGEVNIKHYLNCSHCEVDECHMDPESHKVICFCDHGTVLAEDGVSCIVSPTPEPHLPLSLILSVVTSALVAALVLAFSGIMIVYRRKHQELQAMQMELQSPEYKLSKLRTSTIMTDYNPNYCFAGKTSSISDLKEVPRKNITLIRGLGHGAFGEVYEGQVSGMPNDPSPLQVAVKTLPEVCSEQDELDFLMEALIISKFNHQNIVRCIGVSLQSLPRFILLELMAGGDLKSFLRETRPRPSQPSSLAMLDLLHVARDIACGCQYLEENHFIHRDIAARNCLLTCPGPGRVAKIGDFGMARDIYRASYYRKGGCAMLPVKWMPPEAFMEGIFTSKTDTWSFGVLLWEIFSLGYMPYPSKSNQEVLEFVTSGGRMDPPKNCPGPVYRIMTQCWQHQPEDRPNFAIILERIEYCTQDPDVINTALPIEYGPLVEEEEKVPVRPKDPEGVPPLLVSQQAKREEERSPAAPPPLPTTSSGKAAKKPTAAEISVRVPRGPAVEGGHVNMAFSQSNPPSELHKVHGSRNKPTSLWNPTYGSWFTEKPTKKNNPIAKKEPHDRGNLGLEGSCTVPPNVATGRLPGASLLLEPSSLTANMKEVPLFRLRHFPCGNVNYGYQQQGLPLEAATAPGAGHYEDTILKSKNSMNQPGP
Observed: enzyme activity
Action: inhibitor
Concentration: 0.5 µM
Relative to: control
For `COc1cc2ncnc(Nc3ccc(F)c(Cl)c3)c2cc1OCCCN1CCOCC1`, the remaining activity was 98.8%.
`Cc1ccc(Nc2nccc(N(C)c3ccc4c(C)n(C)nc4c3)n2)cc1S(N)(=O)=O` has a remaining activity of 85.3%.
`COc1ccc(C(=O)Nc2sc3c(c2C(N)=O)CCCC3)cc1OC` has a remaining activity of 66.2%.
`O=C1NC(=O)C(c2cn(CCCO)c3ncccc23)=C1c1cnccn1` has a remaining activity of 105%.
For `Nc1[nH]nc2nc3ccccc3nc12`, the remaining activity was 96.7%.
`Cc1nc(-c2ccccc2)c(-c2ccncc2)o1` gave a remaining activity of 108%.
The remaining activity of `O=C(O)c1ccc2c3c1cccc3c(=O)n1c3ccccc3nc21` is reported as 92.7%.
`O=C1NC(=O)C(c2cn(CCCn3ccnc3)c3ccccc23)=C1Nc1ccccc1` has a remaining activity of 97.7%.
`Nc1ccc2ncnc(NCCc3ccc(Oc4ccccc4)cc3)c2c1` gave a remaining activity of 108%.
`O=c1c2ccccc2[nH]c(=S)n1CCN1CCC(=C(c2ccc(F)cc2)c2ccc(F)cc2)CC1` gave a remaining activity of 104%.
The remaining activity of `CNC(=O)c1cc(Oc2ccc(NC(=O)Nc3ccc(Cl)c(C(F)(F)F)c3)cc2)ccn1` is reported as 97.3%.
With `Cc1cccc(-c2[nH]c(C(C)(C)C)nc2-c2ccc3c(c2)OCO3)n1` the remaining activity was 103%.
For `O=S(=O)(c1cccc2cnccc12)N1CCCNCC1`, the remaining activity was 120%.
`COc1cc2nccc(Oc3ccc(NC(=S)NC(=O)c4ccccc4C)cc3)c2cc1OC` has a remaining activity of 80.8%.

Block 2
Target: RNA binding protein fox-1 homolog 2, RRM domain, GST-SBP tag (RBFOX2, Homo sapiens, UniProt O43251-10, residues 100-194)
Method: RNA Bind-n-Seq
Molecule type: RNA
Medium: in vitro
Concentration: 365 nM
Setting: natural RNA segment, single round, ends assumed
Relative to: no-protein control
Reading: higher = stronger binding
Shared flanks, not repeated: GGGAGUUCUACAGUCCGACGAUC … UGGAAUUCUCGGGUGCCAA
Target sequence (chain): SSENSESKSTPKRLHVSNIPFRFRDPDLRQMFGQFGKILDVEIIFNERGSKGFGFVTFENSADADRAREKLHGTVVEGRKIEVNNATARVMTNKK
Under “RBNS enrichment (R)”, `CCUACAAAUACCUGGAGCAGAUGCAGAUUUAGUGGCAGGGAGCGCGGCAGCCCUGGCGGAGGGAUGCAGGUGGGCCGGAAGAUCCCACGAUUCCGAUCGACUGCCAAGCA` is recorded as 1.31.
`AUUCAUCGUGUCCCUGUUUGAACGUUUAGCACAAAAGUCUUAAUAGCACAACACAAAUUCCAUCCAAGAGGAGACUCUUUCCCAUGGUGUUGUCCUGGGUCUGGCAGUGG` — result for “RBNS enrichment (R)”: 0.723.
`ACUAGAGGUUGCUAAUCAGCAUGUUUUAGCCCAAGUCCGCCUUCCUGCUGUGGUUAACCUGUUAUGUUGCUUUUGGAAGGAGACUCUAAGACAGGGAAAGCAAGUUCAUG` — result for “RBNS enrichment (R)”: 17.1.
Under “RBNS enrichment (R)”, `CAAAAGGGAUUUUUAUUUCACAGCUAAAGGGAAAAUAGGUGGAGAAGUUAAAAAAUAAUGUCUGAUCCUGUUCCUAAGUUCCAAACUAUAGCCAACACUCUGAUGCUGCU` is recorded as 0.488.
Under “RBNS enrichment (R)”, `CCUUUUAUGGGAGUGCAGUGCUCCUUACACAAAUACAAAGGGAAGAAGAGCCAGCAGUUGAGGCUCCUCAGUUUUAGUGCUGAAAUAAUAAACAGUGACAGGUCAACAGU` is recorded as 0.657.
Under “RBNS enrichment (R)”, `GGAAAAUUGGUGGAAAAUGCUUUUUGGGGUUACAAUUAUAUCAUUUUUAAGUGUUGAUGCUUUGUAGUACUACAAAGCUAAAUUGUGCAAACAAAACAUAUUUAACAGAG` is recorded as 0.313.
Under “RBNS enrichment (R)”, `AAGUGUGACCACUUAAAGCUGCUCGUUAGCAUGGAAGACUUCUCCAUUCUAUCUUUGUAAAACAGACAAGAUAUGCACUUGACAUAGUAGCAAAUUGGUUCUGAAUUAUG` is recorded as 0.914.
Under “RBNS enrichment (R)”, `UUGUGUGUGUGGUUCAAGUGUGCACUGGGAGGCAACUGAGGUCUGAAGCCAACCAUAUGCUCCUGCCUUGCCGAUAGGUUUUAUUAUUUUUUUUAAAUUAAUGAAAAUAU` is recorded as 0.356.

Block 3
SMILES: CN1CCN(c2cnc3c(C4CCN(C(=O)c5ccc(OC(F)(F)F)cc5N)CC4)ncnc3c2)CC1
Observed: cell-free assay
Method: competition with immobilised ligand
Concentration: 1 µM
The remaining binding was 100% (FGFR4 (Homo sapiens, UniProt P22455)).
For Tyrosine-protein kinase ABL1, phosphorylated (ABL1, Homo sapiens, UniProt P00519, M351T): remaining binding read 100%.
PIK3CD (Homo sapiens, UniProt O00329) — remaining binding: 86%.
STK4 (Homo sapiens, UniProt Q13043) — remaining binding: 84%.
For DDR1 (Homo sapiens, UniProt Q08345): remaining binding read 100%.
It gave 98% for remaining binding (PIK3C2B (Homo sapiens, UniProt O00750)).
It gave 93% for remaining binding (PLK2 (Homo sapiens, UniProt Q9NYY3)).

Block 4
Target: CREB3, bZIP domain (human)
Method: DHFR protein complementation
Medium: yeast
Setting: single substitutions, most at no-binding floor
Relative to: wild-type JUN-FOS pair
Reading: higher = stronger binding
Starting sequence: JUN, bZIP domain (human); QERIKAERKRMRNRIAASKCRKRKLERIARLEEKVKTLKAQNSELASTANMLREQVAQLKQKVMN; partner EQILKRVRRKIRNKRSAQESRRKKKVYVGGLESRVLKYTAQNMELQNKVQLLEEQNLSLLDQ
`Q55D` gave a binding fitness of -1.49 natural log.
`K34S` has a binding fitness of -1.51 natural log.
The binding fitness of `V56Q` is reported as -1.52 natural log.
`V35M` gave a binding fitness of -1.4 natural log.
`I28W` has a binding fitness of -1.52 natural log.
With `E33V` the binding fitness was -1.43 natural log.
`S43K` gave a binding fitness of -1.41 natural log.
With `E32F` the binding fitness was -1.39 natural log.

Some of these lines once more (block 3):
The remaining binding was 100% (FGFR4 (Homo sapiens, UniProt P22455)).
For Tyrosine-protein kinase ABL1, phosphorylated (ABL1, Homo sapiens, UniProt P00519, M351T): remaining binding read 100%.
PIK3CD (Homo sapiens, UniProt O00329) — remaining binding: 86%.
STK4 (Homo sapiens, UniProt Q13043) — remaining binding: 84%.
For DDR1 (Homo sapiens, UniProt Q08345): remaining binding read 100%.
